Assay results pooled from the literature.
Protocols differ between the studies behind these lines. Several values in a cell are separate wells, animals, samples, runs or records. ± gives the spread as reported.
TRPM8: Transient receptor potential cation channel subfamily M member 8 (TRPM8, Homo sapiens, UniProt Q7Z2W7)
FFAR4: Free fatty acid receptor 4 (FFAR4, Homo sapiens, UniProt Q5NUL3)
Maoa: Amine oxidase [flavin-containing] A (Maoa, Rattus norvegicus, UniProt P21396)
GAP50: Glideosome-associated protein 50 (GAP50, Plasmodium falciparum, UniProt Q8I2X3)
NADH dehydrogenase [ubiquinone] iron-sulfur protein 7, mitochondrial/NADH dehydrogenase [ubiquinone] iron-sulfur protein 2, mitochondrial/MT-ND1: NADH dehydrogenase [ubiquinone] iron-sulfur protein 7, mitochondrial/NADH dehydrogenase [ubiquinone] iron-sulfur protein 2, mitochondrial/MT-ND1 (Homo sapiens, UniProt O75251+O75306+P03886)

Structure (SMILES) | target | test | test system | conditions | scale | endpoint | value
O=C(CCCc1ccc(-c2ccccc2F)cc1)Nc1ccc(O)cc1 | TRPM8 | antagonist | HEK293 | 5 µM | baseline: control | remaining activity | 97.8 ± 6.92%
O=c1nc(SCc2cc(F)cc(C(F)(F)F)c2)nc(SCc2ccc3nc(Cl)ccc3c2)[nH]1 | DNA topoisomerase 2-alpha (TOP2A, Homo sapiens, UniProt P11388) | ATPase activity |  | 7.8 µM, with: ATP 1 mM |  | ATP hydrolysis rate | 0.353 µM/min and 2.92 µM/min
O=c1cc(NCCc2ccc(Br)cc2)[nH]c(=O)[nH]1 | FFAR4 | agonist, β-arrestin recruitment | CHO cells | 10 µM |  | activation | 0 ± 1%
COc1c(Nc2cc(C(F)(F)F)cc(C(F)(F)F)c2)c(=O)c1=O | CD209 antigen (CD209, Homo sapiens, UniProt Q9NNX6) | binding, grating-coupled interferometry | mannose-PEG3 chip | 2 h, no Tris |  | Hill slope | 1.8
O=C(COc1ccc(Cl)cc1Cl)Nc1nn(-c2ccccc2)c2ncccc12 | Kir3.1/Kir3.2 (Homo sapiens, UniProt P48051+P48549) | thallium flux, activator | HEK293 |  | baseline: standard compound | Emax | 22%
CC(C)(C)CNc1cc(=O)[nH]c(=O)[nH]1 | FFAR4 | antagonist, β-arrestin recruitment | CHO cells | 10 µM |  | inhibition | 23 ± 6%
[2H]C([2H])(N)c1ccc(C(F)(F)F)cc1 | Maoa | kcat/Km ascending limb free E S, substrate |  | pH 6.5-9.5 |  | pKa1 | 8.1 ± 0.2
C#CCN(CCCN1CCN(C2CCCCC2)CC1)Cc1ccc(C(=O)c2ccc([N+](=O)[O-])cc2)cc1 | Sigma intracellular receptor 2 (TMEM97, Homo sapiens, UniProt Q5BJF2) | radioligand binding | RT-4 cell membranes |  | baseline: sigma1 over sigma2 receptor | selectivity ratio | ~10 fold
Cc1ccc(Oc2ccc(NC(=O)CNc3ccccc3N3CCCC3=O)cc2)cc1 | GAP50 | binding, surface plasmon resonance |  | 1:1 binding model |  | kon | 164000 M⁻¹ s⁻¹
CCC(N)C(=O)O (racemic) | uncharacterized protein (Pelagibacter ubique, UniProt Q4FKZ8) | differential scanning fluorimetry | Candidatus Pelagibacter ubique | in-house screen |  | thermal shift | 2.52 °C
O=c1[nH][nH]c2nnc(-c3c(-c4ccccc4)nn4ccccc34)cc12 | TRPM8 | antagonist | HEK293 | 5 µM | baseline: control | remaining activity | 97.3 ± 10.1%
Nc1nc2c(F)c(F)c(F)cc2[nH]1 | Voltage-gated hydrogen channel 1 (HVCN1, Homo sapiens, UniProt Q96D96, F150A) | proton current, inhibitor, inside-out patch clamp |  |  |  | Hill coefficient | 0.94 ± 0.05
COc1ccc(/C=C2\OC(=O)c3c2cc(C)[nH]c3=O)cc1 | Dual specificity calcium/calmodulin-dependent 3',5'-cyclic nucleotide phosphodiesterase 1C, isoform PDE1C2 (PDE1C, Homo sapiens, UniProt Q14123) | enzyme activity, inhibitor |  | with: 3H-cGMP substrate |  | ligand efficiency | 0.31
NCc1ccc(F)cc1 | Maoa |  |  | pKa-corrected |  | log Kd | -5.8 M
COc1ccc(-c2cc(OCC(=O)N(C)Cc3cccnc3C)nc(-n3nc(C)cc3C)n2)cc1 | Endoplasmic reticulum aminopeptidase 1 (ERAP1, Homo sapiens, UniProt Q9NZ08) |  |  | with: Leu-AMC substrate | baseline: IRAP over ERAP1 | selectivity ratio | > 200 fold
O=C(COc1ccc(C2CCC(=O)NC2=O)cc1)NCCCCCCN1CCc2c(c3ccccc3n2Cc2ccc(C(=O)NO)cc2)C1 (stereo not shown) | Polyamine deacetylase HDAC10 (HDAC10, Homo sapiens, UniProt Q969S8) | degrader, western blot | MM1.S | 1 µM, 24 h |  | degradation | 84%
CC(C)[C@H](NC(=O)c1cc(-c2cnn3cc(-c4ccc(OCCN5CCCCC5)cc4)cnc23)cs1)C(F)(F)F | TRAF2 and NCK-interacting protein kinase (TNIK, Homo sapiens, UniProt Q9UKE5) | radiometric kinase |  | 15 nM | baseline: TNIK over ULK1 | relative inhibition | 0.0568

Structure (SMILES) | target | test | test system | conditions | scale | endpoint | value
O=C(O)CC1=C/C(=C\c2cccc(-c3ccc(F)cc3)n2)c2ccc(F)cc21 | Prostaglandin G/H synthase 2 (Ptgs2, Mus musculus, UniProt Q05769) |  |  |  | baseline: IC50 COX-1 over COX-2 | selectivity ratio | 14 fold
[Cl-].[K+] | GUK1 (Homo sapiens, UniProt Q16774) | enzyme activity, NADH-coupled |  | 7.5 mM |  | reaction velocity | 0.0595 µM/s and 0.0569 µM/s and 0.0745 µM/s
CCCCCCCCCCCCO[C@@H]1O[C@H](CO)[C@@H](O[C@H]2O[C@H](CO)[C@@H](O)[C@H](O)[C@H]2O)[C@H](O)[C@H]1O | Glucagon receptor (GCGR, Homo sapiens, UniProt P47871) | CPM thermal shift |  |  |  | melting temperature | 43.5 ± 0.4 °C
CCCCCCCCN(C)c1cc(=O)[nH]c(=O)[nH]1 | FFAR4 | agonist, β-arrestin recruitment | CHO cells | 10 µM | baseline: 30 µM TUG-891 | agonist effect | 1%
NC(=O)NOCCCCCCCCCC[P+](c1ccccc1)(c1ccccc1)c1ccccc1.O=C([O-])C(F)(F)F | NADH dehydrogenase [ubiquinone] iron-sulfur protein 7, mitochondrial/NADH dehydrogenase [ubiquinone] iron-sulfur protein 2, mitochondrial/MT-ND1 | complex I-dependent respiration, Seahorse XF96 | HCT-116 | 50 µM, 24 h | baseline: control | oxygen consumption rate | 2.72 ± 3.4%
CCCC[C@H](NC(=O)[C@H](C)c1c(C)[nH]c2ccc(O)cc12)c1ncc(-c2cc3ccccc3nc2OC)[nH]1 | Alpha-1B adrenergic receptor (Adra1b, Rattus norvegicus, UniProt P15823) |  | rat |  |  | Hill coefficient | 1.1
CC[C@@H]1[C@H](F)C(=O)N[C@@H]1COc1nccc2cc(C(N)=O)c(OC)cc12 | Ribosomal protein S6 kinase alpha-1 (RPS6KA1, Homo sapiens, UniProt Q15418) | ATP probe binding, KiNativ profiling, measured: domain 2 Lys2 site | THP-1 cell lysate | 0.04 mM |  | inhibition | -5.9%
Nc1nc2c(ncn2[C@@H]2O[C@@H]3COP(=O)(O)O[C@H]3[C@H]2O)c(=O)[nH]1 | Cone cGMP-gated channel (Morone saxatilis, UniProt Q3I0N1+Q3I0N2) | channel current, agonist, suction electrode | cone outer segments | single cone shown, with: 0.5 µM Ca2+ |  | Hill coefficient | 1.8 and 2.1
CCCCCNc1cc(=O)[nH]c(=O)[nH]1 | FFAR4 | antagonist, β-arrestin recruitment | CHO cells | 10 µM, with: 4 µM TUG-891 |  | inhibition | 17 ± 1%
Nc1ncnc2c1ncn2[C@@H]1O[C@H](COP(=O)(O)CP(=O)(O)OP(=O)(O)O)[C@@H](O)[C@H]1O | P2X purinoceptor 1 (P2RX1, Homo sapiens, UniProt P51575, E282A) | calcium influx |  | 10 µM | baseline: ionomycin response | calcium influx | 99% and 100%
CN(C)c1ccc2nc3ccc(=[N+](C)C)cc-3sc2c1 | Microtubule-associated protein tau (MAPT, Homo sapiens, UniProt P10636) | fibril formation, ThT fluorescence |  | 1-fold of tau, at plateau, with: wild-type tau 10 µM, heparin | baseline: untreated | ThT fluorescence | 14 ± 2%
C=CC(=O)N1CCC(COCC(=O)N2CCN(c3nc(-c4cnc(N)nc4C(F)F)nc(N4CCOC[C@@H]4C)n3)CC2)CC1 | Mitogen-activated protein kinase kinase kinase 12 (MAP3K12, Homo sapiens, UniProt Q12852) | KINOMEscan |  | 1 µM | baseline: DMSO control | remaining binding | 72%
Nc1nc2c(ncn2[C@@H]2O[C@@H]3COP(=O)(O)O[C@H]4[C@@H](O)[C@H](n5cnc6c(=O)[nH]c(N)nc65)O[C@@H]4COP(=O)(O)O[C@H]3[C@H]2O)c(=O)[nH]1 | Cell cycle histidine kinase CckA, DHp-CA domains (Caulobacter vibrioides, UniProt Q9X688) | isothermal titration calorimetry | Caulobacter crescentus | concentration not given, 12 °C, with: ADP 5 mM |  | binding enthalpy (ΔH) | 0.9 kcal/mol
NC(=O)NOCCCCCCCCCCCCCC[P+](c1ccccc1)(c1ccccc1)c1ccccc1.O=C([O-])C(F)(F)F | NADH dehydrogenase [ubiquinone] iron-sulfur protein 7, mitochondrial/NADH dehydrogenase [ubiquinone] iron-sulfur protein 2, mitochondrial/MT-ND1 | complex I-dependent respiration, Seahorse XF96 | HCT-116 | 1 µM, 24 h | baseline: control | oxygen consumption rate | 53.5 ± 3.18%
c1cncc(NCc2ccc(-c3cc4ccncc4cc3OC3CCNCC3)s2)c1 | GAP50 | binding, surface plasmon resonance |  | 1:1 binding model |  | koff | 0.397 s⁻¹
O=c1cc(NCCc2cccc(F)c2)[nH]c(=O)[nH]1 | FFAR4 | antagonist, β-arrestin recruitment | CHO cells | 10 µM |  | inhibition | 11 ± 5%
COc1ccccc1C(=O)NCc1ccc(CNS(=O)(=O)c2ccccc2)cc1 | C-X-C chemokine receptor type 4 (CXCR4, Homo sapiens, UniProt P61073) | binding, inhibitor, competitive binding | MDA-MB-231 | with: biotinylated TN14003 |  | EC | 1 nM

A few entries again:
Structure (SMILES) | target | test | test system | conditions | scale | endpoint | value
Nc1ncnc2c1ncn2[C@@H]1O[C@H](COP(=O)(O)CP(=O)(O)OP(=O)(O)O)[C@@H](O)[C@H]1O | P2X purinoceptor 1 (P2RX1, Homo sapiens, UniProt P51575, E282A) | calcium influx |  | 10 µM | baseline: ionomycin response | calcium influx | 99% and 100%
CN(C)c1ccc2nc3ccc(=[N+](C)C)cc-3sc2c1 | Microtubule-associated protein tau (MAPT, Homo sapiens, UniProt P10636) | fibril formation, ThT fluorescence |  | 1-fold of tau, at plateau, with: wild-type tau 10 µM, heparin | baseline: untreated | ThT fluorescence | 14 ± 2%
